Measured values of several laboratories.
Each line is one published result; not all experiments were run side by side. “And” joins repeats or separate records; there may be more than shown. Numbers after ± are the reported error.
U2AF2: U2AF2 148-342 (Homo sapiens, UniProt P26368)
Sequence of UniProt P26368 (whole entry, looked up): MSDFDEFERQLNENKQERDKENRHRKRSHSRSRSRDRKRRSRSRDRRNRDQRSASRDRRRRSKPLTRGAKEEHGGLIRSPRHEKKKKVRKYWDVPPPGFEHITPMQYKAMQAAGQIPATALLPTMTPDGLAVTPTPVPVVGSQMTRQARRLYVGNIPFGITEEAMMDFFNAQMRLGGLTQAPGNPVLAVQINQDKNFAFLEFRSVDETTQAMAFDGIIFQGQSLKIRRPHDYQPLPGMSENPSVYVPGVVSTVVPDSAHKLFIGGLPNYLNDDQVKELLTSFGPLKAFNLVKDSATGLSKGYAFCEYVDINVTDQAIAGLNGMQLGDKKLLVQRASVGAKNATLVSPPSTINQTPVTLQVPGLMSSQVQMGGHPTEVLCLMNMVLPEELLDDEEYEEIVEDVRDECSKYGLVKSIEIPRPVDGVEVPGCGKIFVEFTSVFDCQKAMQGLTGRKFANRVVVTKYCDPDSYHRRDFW
SPT15 full length assumed: SPT15 full length assumed (Saccharomyces cerevisiae, UniProt P13393)
Sequence of UniProt P13393 (whole entry, looked up): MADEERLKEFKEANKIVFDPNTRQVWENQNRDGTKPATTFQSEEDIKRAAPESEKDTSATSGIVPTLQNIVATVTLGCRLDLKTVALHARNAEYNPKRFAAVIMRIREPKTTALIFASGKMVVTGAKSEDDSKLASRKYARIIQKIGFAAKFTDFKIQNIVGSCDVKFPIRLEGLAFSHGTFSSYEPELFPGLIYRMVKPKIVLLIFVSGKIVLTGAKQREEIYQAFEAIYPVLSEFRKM
B1: PP4 regulatory subunit 4 (human); sequence looked up; chain MHPPPPAAAMDFSQNSLFGYMEDLQELTIIERPVRRSLKTPEEIERLTVDEDLSDIERAVYLLSAGQDVQGTSVIANLPFLMRQNPTETLRRVLPKVREALHVAGVEMQLTAAMSFLTILQDESVSIHAYTHSFLQVILLHLEHRDTGVSNAWLETLLSVIEVLPKETLRHEILNPLVSKAQLSQTVQSRLVSCKILGKLTNKFDAHTIKREILPLVKSLCQDVEYEVRSCMCRQLENIAQGIGTELTKSVVLPELIELSRDEGSSVRLAAFETLVNLLDIFDTDDRSQTILPLVKSFCEKSFKADESILISLSFHLGKLCHGLYGIFTPDQHLRFLEFYKKLCTLGLQQENGHNENQIPPQILEQEKKYISVRKNCAYNFPAMIVFVDPKNFHMELYSTFFCLCHDPEVPVRYTIAICFYEVSKLLNSGVYLIHKELITLLQDESLEVLDALIDHLPEILELMSTGGESSVQENKLSSLPDLIPALTAAEQRAAASLKWRTHEKLLQKYACLPHVISSDQIYYRFLQRMFTIMMTNNVLPVQKAASRTLCIFLRYNRKQEQRHEVIQKLIEQLGQGKSYWNRLRFLDTCEFIIEIFSKSFFCKYFFLPAIELTHDPVANVRMKLCYLLPKVKSTLKIPADKHLLQQLEMCVRKLLCQEKDKDVLAIVKRTVLELDRMEMSMDAFQKKFYEKDLLDQEKEREELLLLEMEQLEKEKQQNDGRPMSDKMFEKKRRDTKTPTQSLPKNIPISVPGPSSVTPSTSKEIKKSKLIRSQSFNNQAFHAKYGNLEKCASKSSTTGYTTSVSGLGKTSVLSLADDSFRTRNASSVPSSFSPNTPLPSTSRGTGNSVDPKSSGSKDTQPRKATLKSRKSNP
Sequence of UniProt Q00535 (whole entry, looked up): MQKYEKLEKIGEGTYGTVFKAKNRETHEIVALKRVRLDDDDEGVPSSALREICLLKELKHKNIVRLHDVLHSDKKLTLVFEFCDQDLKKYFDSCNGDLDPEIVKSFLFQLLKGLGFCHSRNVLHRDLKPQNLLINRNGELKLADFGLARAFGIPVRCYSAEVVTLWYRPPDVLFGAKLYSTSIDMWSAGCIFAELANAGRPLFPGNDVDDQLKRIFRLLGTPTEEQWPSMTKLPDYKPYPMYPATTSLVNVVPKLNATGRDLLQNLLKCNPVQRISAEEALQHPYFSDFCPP

PTBP1 (human) — log2 fold change (CYB5R4 knockout human cells; PP6 interaction, 3xFLAG-PP6C IP-MS; concentration not given; reference: CYB5R4 KO over parental): -0.37
EADPIIDSY — GFP-positive cells (Jurkat NFAT-eGFP expressing engineered TCR; NFAT reporter gene; peptide; concentration not given, HLA-A*01:01 presentation): 1.66%
B1 (PP4 regulatory subunit 4) — log2 fold change (CYB5R4 knockout human cells; PP4 interaction, 3xFLAG-PP4C IP-MS; concentration not given; reference: CYB5R4 KO over parental): 0.14
epoetin alfa — mRNA fold induction (UT7/EPO; RT-qPCR, measured: CD80; concentration not given, 90 min; reference: vehicle): 2.7 fold
difelikefalin — PGIC much improved (Japanese haemodialysis patients with pruritus; intravenous, 0.25 µg/kg, 8 weeks): 34.4%
GUUUAUUUU (ssRNA) — Kd (U2AF2; sequencing of bound RNA; RNA; motif only): 10.5 µM
NPDALPETLV — normalised SPR binding response (construct, MBP fusion, human SCRIB, PDZ 3-4; surface plasmon resonance; peptide; concentration not given; higher = stronger binding): 10.7 normalised RU
TCCTGAAGGGGCGCCTATAAAAGGTCCTATCGTCGTCAAGTCAATCGGTCC (dsDNA; 5'-amino-C6 primer) — Kd (SPT15 full length assumed; array; double-stranded DNA, one strand shown; TBP alone): 0.0023 ± 0.00066 µM
Peginesatide — mRNA level (UT7/EPO; microarray, measured: MAFF mRNA (probe set 36711_at); 20 nM, 90 min; reference: vehicle): 4.6 fold
milbemycin oxime — OD600 (Saccharomyces cerevisiae; cell growth; Pdr5 deleted, Cdr1 overexpressed; 2^-4.966 µg/mL): 1.01 and 0.996 and 0.975
GSGAGRETEV — binding intensity (construct, MBP fusion, human SCRIB, PDZ 3-4; automated holdup; peptide, crude extract; concentration not given, corrected by standard peak, unit not given; reference: biotin control resin, higher = stronger binding): 0.61
KNAFWDRCLSVINLMSSKMLQINA — activity change (Cyclin-dependent kinase 5, with p25 (CDK5, Homo sapiens, UniProt Q00535); phosphotransferase activity, radiometric; peptide; concentration not given, 10% DMSO, together with: histone substrate; reference: p5-WT peptide): 1%
human RANBP2 — log2 fold change (CYB5R4 knockout human cells; PP4 interaction, 3xFLAG-PP4C IP-MS; concentration not given; reference: CYB5R4 KO over parental): -0.73
GAAGCGAGTACGGAGGTACCAGCTGGTCTCCGTAGTCAAGTCAATCGGTCC (dsDNA; 5'-amino-C6 primer) — Kd (SPT15 full length assumed; array; double-stranded DNA, one strand shown; TBP alone): 0.0015 ± 0.0001 µM
colistin — MIC (Enterobacter cloacae; broth microdilution; clinical isolate RKI-No_33/16): ≤ 0.5 µg/mL
human Hsc70 — log2 fold change (CYB5R4 knockout human cells; PP4 interaction, 3xFLAG-PP4C IP-MS; concentration not given; reference: CYB5R4 KO over parental): 0.39
GUUGUAUAU (ssRNA) — Kd (U2AF2; sequencing of bound RNA; RNA; motif only): 7.6 µM
KPGKGSETVV — normalised SPR binding response (construct, MBP fusion, human SCRIB, PDZ 3-4; surface plasmon resonance; peptide; concentration not given; higher = stronger binding): 0 normalised RU

Excerpt of the above:
KPGKGSETVV — normalised SPR binding response (construct, MBP fusion, human SCRIB, PDZ 3-4; surface plasmon resonance; peptide; concentration not given; higher = stronger binding): 0 normalised RU
